Experimental data collected from several papers.
Numbered parts are unrelated; each lists some results of a single study.
Sequence of UniProt Q07002 (whole entry, looked up): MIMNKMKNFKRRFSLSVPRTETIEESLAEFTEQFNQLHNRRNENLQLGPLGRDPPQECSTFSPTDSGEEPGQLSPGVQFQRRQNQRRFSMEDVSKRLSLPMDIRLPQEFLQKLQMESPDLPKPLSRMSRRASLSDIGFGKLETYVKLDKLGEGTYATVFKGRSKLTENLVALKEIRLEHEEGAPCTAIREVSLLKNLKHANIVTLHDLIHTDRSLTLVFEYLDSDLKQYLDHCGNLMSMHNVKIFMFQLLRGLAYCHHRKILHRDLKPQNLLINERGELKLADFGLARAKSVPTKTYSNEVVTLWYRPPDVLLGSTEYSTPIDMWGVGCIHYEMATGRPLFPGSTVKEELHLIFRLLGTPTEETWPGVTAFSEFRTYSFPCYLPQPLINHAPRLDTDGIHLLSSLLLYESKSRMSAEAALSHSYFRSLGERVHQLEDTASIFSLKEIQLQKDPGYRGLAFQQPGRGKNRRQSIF
Sequence of UniProt Q04771 (whole entry, looked up): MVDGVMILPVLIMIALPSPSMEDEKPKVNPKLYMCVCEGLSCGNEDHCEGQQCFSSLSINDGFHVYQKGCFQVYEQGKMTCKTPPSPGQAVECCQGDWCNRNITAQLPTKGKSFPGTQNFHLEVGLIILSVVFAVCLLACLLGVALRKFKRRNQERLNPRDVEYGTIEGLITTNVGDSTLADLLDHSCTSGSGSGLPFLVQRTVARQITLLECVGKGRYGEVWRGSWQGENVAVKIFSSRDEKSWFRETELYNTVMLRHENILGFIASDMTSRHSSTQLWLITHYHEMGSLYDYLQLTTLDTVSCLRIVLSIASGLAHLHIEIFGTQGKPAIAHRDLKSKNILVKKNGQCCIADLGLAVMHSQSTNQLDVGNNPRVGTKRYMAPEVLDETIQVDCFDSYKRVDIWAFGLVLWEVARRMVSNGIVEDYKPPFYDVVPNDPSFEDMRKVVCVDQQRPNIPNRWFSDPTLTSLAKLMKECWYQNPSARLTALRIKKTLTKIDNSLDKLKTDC
Sequence of UniProt Q8IW41 (whole entry, looked up): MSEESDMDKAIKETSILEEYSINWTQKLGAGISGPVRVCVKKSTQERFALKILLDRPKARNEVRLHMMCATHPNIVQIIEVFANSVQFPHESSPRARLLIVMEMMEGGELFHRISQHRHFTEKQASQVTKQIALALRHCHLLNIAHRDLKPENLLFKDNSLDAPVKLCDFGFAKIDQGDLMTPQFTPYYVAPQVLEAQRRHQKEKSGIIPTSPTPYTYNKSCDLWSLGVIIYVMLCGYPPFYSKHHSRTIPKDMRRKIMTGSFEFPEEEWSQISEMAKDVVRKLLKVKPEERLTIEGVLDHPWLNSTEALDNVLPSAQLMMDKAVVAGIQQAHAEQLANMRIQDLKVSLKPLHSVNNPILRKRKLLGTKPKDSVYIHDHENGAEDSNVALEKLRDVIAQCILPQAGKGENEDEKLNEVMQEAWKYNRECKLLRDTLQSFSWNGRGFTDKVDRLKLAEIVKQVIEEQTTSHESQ
Sequence of UniProt P54646 (whole entry, looked up): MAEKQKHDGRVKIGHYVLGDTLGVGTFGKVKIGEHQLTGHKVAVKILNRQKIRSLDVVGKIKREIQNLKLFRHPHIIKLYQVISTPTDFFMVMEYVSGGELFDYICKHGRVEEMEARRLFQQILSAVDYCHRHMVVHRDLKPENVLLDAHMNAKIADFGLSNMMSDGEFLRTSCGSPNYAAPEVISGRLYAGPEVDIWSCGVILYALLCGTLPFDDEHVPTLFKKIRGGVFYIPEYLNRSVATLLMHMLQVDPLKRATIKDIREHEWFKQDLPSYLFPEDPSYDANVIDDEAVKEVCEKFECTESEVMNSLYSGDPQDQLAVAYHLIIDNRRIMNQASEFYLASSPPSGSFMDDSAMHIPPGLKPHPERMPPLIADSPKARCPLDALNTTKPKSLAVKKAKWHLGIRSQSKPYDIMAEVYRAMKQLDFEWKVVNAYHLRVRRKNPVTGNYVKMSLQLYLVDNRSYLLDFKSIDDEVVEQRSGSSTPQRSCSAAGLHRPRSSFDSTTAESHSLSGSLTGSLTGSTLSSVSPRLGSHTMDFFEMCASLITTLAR
Sequence of UniProt Q8IYT8 (whole entry, looked up): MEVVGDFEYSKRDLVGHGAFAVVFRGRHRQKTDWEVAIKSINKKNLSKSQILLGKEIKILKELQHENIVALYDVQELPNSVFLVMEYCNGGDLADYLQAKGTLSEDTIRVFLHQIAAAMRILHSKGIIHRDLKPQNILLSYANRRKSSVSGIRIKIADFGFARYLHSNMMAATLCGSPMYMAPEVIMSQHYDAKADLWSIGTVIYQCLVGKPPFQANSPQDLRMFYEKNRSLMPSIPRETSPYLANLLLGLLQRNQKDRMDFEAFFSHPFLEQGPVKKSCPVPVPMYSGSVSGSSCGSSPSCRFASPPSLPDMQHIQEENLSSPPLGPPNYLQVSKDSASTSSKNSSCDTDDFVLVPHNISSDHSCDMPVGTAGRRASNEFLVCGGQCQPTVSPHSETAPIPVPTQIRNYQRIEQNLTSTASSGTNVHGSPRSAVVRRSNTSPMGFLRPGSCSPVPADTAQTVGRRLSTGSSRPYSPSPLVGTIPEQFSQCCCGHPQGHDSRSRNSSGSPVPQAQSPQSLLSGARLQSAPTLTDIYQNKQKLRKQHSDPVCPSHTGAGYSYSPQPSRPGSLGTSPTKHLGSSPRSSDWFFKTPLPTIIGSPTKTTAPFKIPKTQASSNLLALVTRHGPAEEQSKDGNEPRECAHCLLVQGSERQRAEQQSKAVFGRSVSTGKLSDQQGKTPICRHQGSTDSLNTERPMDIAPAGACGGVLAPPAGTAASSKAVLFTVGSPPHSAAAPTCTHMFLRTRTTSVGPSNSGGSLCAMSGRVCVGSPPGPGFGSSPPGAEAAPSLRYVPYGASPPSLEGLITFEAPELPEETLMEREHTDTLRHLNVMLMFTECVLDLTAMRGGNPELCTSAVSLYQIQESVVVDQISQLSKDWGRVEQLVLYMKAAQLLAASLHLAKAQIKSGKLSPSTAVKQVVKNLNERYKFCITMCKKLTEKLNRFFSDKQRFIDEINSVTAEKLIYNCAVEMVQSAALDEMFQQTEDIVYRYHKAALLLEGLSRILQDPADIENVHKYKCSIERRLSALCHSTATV
Sequence of UniProt Q96GD4 (whole entry, looked up): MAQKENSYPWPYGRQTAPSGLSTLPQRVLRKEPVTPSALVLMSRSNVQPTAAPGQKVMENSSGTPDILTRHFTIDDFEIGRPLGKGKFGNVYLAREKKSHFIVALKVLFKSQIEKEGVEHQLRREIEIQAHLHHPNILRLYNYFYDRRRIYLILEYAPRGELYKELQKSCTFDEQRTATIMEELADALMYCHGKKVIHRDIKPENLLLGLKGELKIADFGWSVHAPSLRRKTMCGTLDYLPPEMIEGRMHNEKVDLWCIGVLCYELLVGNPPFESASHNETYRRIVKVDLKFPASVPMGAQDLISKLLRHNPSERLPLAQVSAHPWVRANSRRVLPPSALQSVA

Sample 1 — observed: ligand displacement; concentration: 10 µM
Target: Sigma non-opioid intracellular receptor 1 (SIGMAR1, Homo sapiens, UniProt Q99720)
Sequence of UniProt Q99720 (whole entry, looked up): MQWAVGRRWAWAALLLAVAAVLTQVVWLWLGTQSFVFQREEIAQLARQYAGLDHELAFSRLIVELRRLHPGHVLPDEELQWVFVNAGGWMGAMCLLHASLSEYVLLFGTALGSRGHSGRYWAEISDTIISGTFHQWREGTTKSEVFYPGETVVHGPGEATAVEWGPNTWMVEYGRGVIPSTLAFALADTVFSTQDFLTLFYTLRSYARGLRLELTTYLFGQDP
SMILES	inhibition [%]
Cc1c(NC(=O)c2cc(C(N)=O)nc3cc(F)ccc23)c(C(F)(F)F)nn1Cc1ccc(C#N)cc1	-2.5
CC(=O)N1CCC(c2ccc(C(=O)NC3=NCCN3)cc2C(F)(F)F)CC1	-8.45
O=C(Nc1ccc(Oc2ccc(F)cc2)cc1)N1CCc2ncccc2[C@H]1c1ccc(F)cc1	73.4
CCC(=NO)C(C)=Cc1ccc(F)c(C)c1	86.8
O=C(NS(=O)(=O)c1ccc(NCC2CCOCC2)c([N+](=O)[O-])c1)c1ccc(N2CCN(Cc3ccc(C(F)(F)F)cc3-c3ccc(Cl)cc3)CC2)cc1Oc1cnc2[nH]ccc2c1	11.1
CNC(=O)Nc1ccc2c(c1)CC[C@]21OC(=O)N(CC(=O)N(Cc2ccc(F)cc2)[C@@H](C)C(F)(F)F)C1=O	34.5
O=C(N[C@H]1CCCCC/C=C\C2C[C@@]2(C(=O)O)NC(=O)[C@@H]2C[C@@H](Oc3ccncc3)CN2C1=O)OC1CCCC1 (some centres unmarked)	11.1
CC1=C(C#N)C(c2ccc3[nH]nc(C)c3c2)C(C#N)=C(C)N1	-9.08
CC[C@H](CC(=O)O)n1c(=O)c2ncccc2n(Cc2cn(C)c3cc(C)cc(C)c23)c1=O	-15.9
C[C@@H]1CN(c2cc(-c3n[nH]c4ccc(OC5(C)CC5)cc34)ncn2)C[C@H](C)O1	35.9
COCCOc1nc(-c2ccc(Cl)nc2)nc2c1CN(C(=O)c1ncn3ccccc13)CC2	38.1
CN1CCN(c2cnc3c(C4CCN(C(=O)c5ccc(OC(F)(F)F)cc5N)CC4)ncnc3c2)CC1	72.4
Nc1cnc(N2CCc3cc(S(=O)(=O)Nc4c(F)cc(Cl)cc4F)cc(N4CCCC4=O)c32)nc1	-14.4
C[C@H](c1ccc(F)cc1)N(Cc1cccc(C(=O)O)c1)C(=O)c1cnc2ccccc2c1	16
CC1CCN(c2ccnc(NCc3cn(C)cn3)n2)CC1	36.6
COc1cc(-c2cn(C3CCc4c(F)cccc4N(CC(F)(F)F)C3=O)nn2)ccc1-n1cnc(C)c1 (centres unmarked)	26.6
c1ccc(C2CCN(c3cnc4c(N5CCOCC5)nccn34)CC2)cc1	44
COc1cc(N[C@@H]2CCCC[C@]2(O)C(F)(F)F)ccc1F	-19.6
Nc1nc(NCc2ccccc2)nc(-c2ccccc2CO)n1	-0.41
CNC(=N)NCCC[C@H](NC(=O)[C@H](CC(C)C)NC(=O)NNC(=O)[C@H](Cc1ccccc1)NC(=O)[C@H](CO)NC(=O)[C@H](CC(N)=O)NC(=O)[C@@H](Cc1ccncc1)NC(=O)[C@H](N)Cc1ccc(O)cc1)C(=O)N[C@@H](Cc1ccccc1)C(N)=O	3.72
c1ccc(N2CCN(Cc3nc4ccccc4[nH]3)CC2)nc1	58.6
CN([C@@H]1CCc2c(CC(=O)O)c3ccccc3n2C1)S(=O)(=O)c1ccc(F)cc1	-33.7
CS(=O)(=O)N1CCCC(NC(=O)[C@H](CCC2CCCCC2)NC(=O)c2ccc(CNC(=O)c3cnc4ccccn34)cc2)C1 (some centres unmarked)	32
COc1cc(C(=O)O)ncc1C#Cc1ccccc1NS(=O)(=O)c1cccc2c(N(C)C)ccnc12	18.7
NC(=O)c1ccc2nc(-c3ccc(C4(N)CCC4)cc3)c(-c3ccccc3)n2n1	-1.31

Sample 2 — observed: enzyme activity; action: inhibitor; concentration: 10 µM
Target: Calcium/calmodulin-dependent protein kinase type II subunit alpha (CAMK2A, Homo sapiens, UniProt Q9UQM7)
Sequence of UniProt Q9UQM7 (whole entry, looked up): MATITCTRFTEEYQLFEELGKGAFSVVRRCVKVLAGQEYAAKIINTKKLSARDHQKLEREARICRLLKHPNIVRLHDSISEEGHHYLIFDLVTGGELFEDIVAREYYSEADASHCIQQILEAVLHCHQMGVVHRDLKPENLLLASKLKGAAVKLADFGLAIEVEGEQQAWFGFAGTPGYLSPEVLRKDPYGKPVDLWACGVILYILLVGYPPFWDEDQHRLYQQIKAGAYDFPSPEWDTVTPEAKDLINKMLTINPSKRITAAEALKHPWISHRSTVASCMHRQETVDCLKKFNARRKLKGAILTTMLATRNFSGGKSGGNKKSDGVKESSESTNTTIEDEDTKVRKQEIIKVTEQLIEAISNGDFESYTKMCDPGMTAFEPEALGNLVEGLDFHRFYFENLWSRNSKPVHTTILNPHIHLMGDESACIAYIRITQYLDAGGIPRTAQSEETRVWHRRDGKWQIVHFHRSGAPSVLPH
SMILES	inhibition [%]
O=C(/C=C/c1ccc(O)c(O)c1)O[C@H]1[C@H](O)C[C@](O)(C(=O)O)C[C@H]1OC(=O)/C=C/c1ccc(O)c(O)c1	-5
CC(C)=CCC[C@](C)(O[C@@H]1O[C@H](CO)[C@@H](O)[C@H](O)[C@H]1O)[C@H]1CC[C@]2(C)[C@@H]1[C@H](O)C[C@@H]1[C@@]3(C)C[C@@H](O)[C@H](O[C@@H]4O[C@H](CO)[C@@H](O)[C@H](O)[C@H]4O[C@@H]4O[C@H](CO)[C@@H](O)[C@H](O)[C@H]4O)C(C)(C)[C@@H]3CC[C@]12C	8
C[C@H](Oc1cc(-c2cnn(C3CCNCC3)c2)cnc1N)c1c(Cl)ccc(F)c1Cl	-8
O=C1c2ccccc2C(=O)c2cc(O)ccc21	-21
CC(C)=CC(=O)NCC(=O)O	-21
O=C(O)Cn1ccnc1	-38

Sample 3 — host: human; medium: microsomes or S9; concentration: 2 µM; time: 0.5 h
SMILES	remaining compound [%]
COC(=O)c1ccc(C2Nc3cc(C)c(C)cc3NC3=C2C(=O)CC(C)(C)C3)cc1 (centres unmarked)	9.14
CCN(C1=C(N2CCC(C)CC2)C(=O)c2ccccc2C1=O)c1ccccc1	39.7
Cn1c2c(c3cc(O)ccc31)C=NC(Cc1ccccc1)C(=O)N2 (centres unmarked)	99.5
COCCCn1cnnc1C(C)NC(=O)c1cnn[nH]1 (centres unmarked)	80.4
Cc1cccc(S(=O)(=O)Nc2nc3ncc(Br)nc3s2)c1	44.6
O=C1CCC2(C(=O)NCCCn3cccn3)CCCC=C2N1C1CCCC1 (centres unmarked)	51.2
c1ccc(CNc2nc3ccccc3c3nncn23)cc1	67.9

Sample 4 — observed: RNA clamping; method: fluorescence polarization; concentration: concentration not given; notes: mean of two replicates; together with: FAM-labelled poly r(AG)8 RNA
Target: Eukaryotic initiation factor 4A-III (Homo sapiens, UniProt P38919)
Sequence of UniProt P38919 (whole entry, looked up): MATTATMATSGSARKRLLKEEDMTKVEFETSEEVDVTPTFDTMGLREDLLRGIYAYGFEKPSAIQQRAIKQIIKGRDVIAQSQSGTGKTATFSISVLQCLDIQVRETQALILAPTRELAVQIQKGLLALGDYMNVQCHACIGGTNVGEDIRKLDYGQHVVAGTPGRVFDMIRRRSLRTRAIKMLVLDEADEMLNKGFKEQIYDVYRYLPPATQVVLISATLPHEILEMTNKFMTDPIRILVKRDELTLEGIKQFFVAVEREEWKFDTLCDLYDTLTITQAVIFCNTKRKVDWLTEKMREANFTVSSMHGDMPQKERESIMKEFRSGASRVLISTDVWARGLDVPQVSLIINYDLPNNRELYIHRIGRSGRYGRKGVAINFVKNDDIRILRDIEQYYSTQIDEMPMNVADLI
SMILES	fluorescence polarization change
COc1ccc([C@]23[C@H](c4ccccc4)C[C@@H](O)[C@@]2(O)c2c(OC)cccc2N3C)cc1	-1.3 mP
C=CCOc1nc(-c2ccccc2)nc2c1[C@@H](c1ccccc1)[C@]1(c3ccc(OC)cc3)Oc3cc(OC)cc(OC)c3[C@]21O	4.1 mP
COc1ccc([C@@]23Oc4cc(OC)cc(OC)c4[C@]2(O)C=C(C(=O)c2ccco2)[C@H]3c2ccccc2)cc1	24.9 mP
COc1ccc([C@@]23Oc4cc(O)cc(OC)c4[C@]2(O)c2nc4n(c(=O)c2[C@H]3c2ccccc2)CCC4)cc1	29.8 mP
CCCc1ccc(C(=O)[C@H]2[C@@H](O)[C@@]3(O)c4c(OC)cc(OC)cc4O[C@@]3(c3ccc(OC)cc3)[C@@H]2c2ccccc2)o1	6.5 mP

Sample 5 — concentration: 1 µM
SMILES: Cc1ccc(NC(=O)c2ccnc(C(F)(F)F)c2)cc1-c1cc(OCCO)nc(N2CCOCC2)c1
target	test	setting	how to read	remaining binding
Aurora kinase B (AURKB, Homo sapiens, UniProt Q96GD4)	competitive binding panel	–	reference: vehicle	89%
MAPKAPK5 (Homo sapiens, UniProt Q8IW41)	competitive binding panel	–	reference: vehicle	100%
ULK2 (Homo sapiens, UniProt Q8IYT8)	competitive binding panel	–	reference: vehicle	100%
HASPIN (Homo sapiens, UniProt Q8TF76)	competitive binding, DiscoverX scanMAX binding	–	–	100%
CDK18 (Homo sapiens, UniProt Q07002)	competitive binding panel	–	reference: vehicle	100%
ACVR1 (Homo sapiens, UniProt Q04771)	competitive binding panel	–	reference: vehicle	100%
PRKAA2 (Homo sapiens, UniProt P54646)	competitive binding, scanMAX	AMPK-alpha2, 1000 nM	–	100%
